Measured values collected from several papers.
Numbers after ± are the reported error.

SMILES | cell line | test | setting | scale | quantity | result
CCCCCCCCCCCCCCCC(=O)N[C@@H](CCC(=O)NCCCC[C@H](NC(=O)[C@H](CC(=O)O)NC(=O)[C@H](CO)NC(=O)[C@@H](NC(=O)[C@H](Cc1ccccc1)NC(=O)[C@@H](NC(=O)CNC(=O)[C@H](CCC(N)=O)NC(=O)[C@H](CO)NC(=O)[C@@H](N)Cc1c[nH]cn1)[C@@H](C)O)[C@@H](C)O)C(=O)N[C@@H](CO)C(=O)N[C@@H](CCC(=O)O)C(=O)N[C@@H](Cc1ccc(O)cc1)C(=O)N[C@@H](CC(C)C)C(=O)N[C@@H](CC(=O)O)C(=O)N[C@@H](CO)C(=O)N[C@@H](CCC(=O)O)C(=O)N[C@@H](CCCNC(=N)N)C(=O)N[C@@H](C)C(=O)N[C@@H](CCCNC(=N)N)C(=O)N[C@@H](CC(=O)O)C(=O)N[C@@H](Cc1ccccc1)C(=O)N[C@H](C(=O)N[C@@H](C)C(=O)N[C@@H](Cc1c[nH]c2ccccc12)C(=O)N[C@@H](CC(C)C)C(=O)N[C@@H](CCC(=O)O)C(=O)N[C@@H](C)C(=O)NCC(=O)NCC(=O)O)C(C)C)C(=O)O | primary mouse hepatocytes | cAMP accumulation, agonist | 0.1% BSA |  | EC50 | 0.84 ± 0.08 nM
CC(=O)OC[C@H]1O[C@@H](Sc2sc(C(=O)c3ccc(C)cc3)c(N)c2-c2nc3ccccc3s2)[C@H](OC(C)=O)[C@@H](OC(C)=O)[C@H]1OC(C)=O | EKVX | SRB | 10 µM, 48 h | relative to: untreated | growth | 68.3%
[Cl][Pd-2]1([Cl])[N+](=Cc2ccc[nH]2)Cc2cccc[n+]21 | Caco-2 | MTT | 100 µg/mL, 24 h |  | viability reduction | > 80%
COc1cc(CNC(=O)C[C@H](C)CCC=C(C)C)ccc1OCc1cn(-c2cccc([N+](=O)[O-])c2)nn1 | DU-145 | SRB | 10 µM, 48 h |  | growth percent | 84.5%
Cc1cc(Nc2ccc(NC(=O)c3ccc(NC(=O)c4ccncc4)cc3)cc2)nc(N)n1 | KG-1 with methylated CMV-luciferase | luciferase reporter gene | 0.1 µM, 24 h | relative to: untreated | reporter reactivation | 1 ± 0.1 fold
COc1ccc(C2=Nn3c(NN=C4C(=O)N(C)c5ccc(Br)cc54)nnc3SC2)cc1 | ACHN | cell growth or viability, SRB | 10 µM |  | inhibition | 17%
CC(C)C(=O)Cc1c(OCC(O)C(C)(C)O)ccc2ccc(=O)oc12 (stereo not shown) | COLO 320 (ABCB1-overexpressing, multidrug-resistant) | cell growth | 200 µM starting, CI at ED50, with: doxorubicin, ratio 185.6:1 |  | combination index | 0.78
O=C1OCC2=C1C(c1cccc(Br)c1)C1=C(N2)C(=O)c2ccccc2C1=O (stereo not shown) | SK-LU-1 cells | PI flow cytometry | 0.16 µM, 24 h |  | cells in S phase | 21.6%
CC(C)(C)C(=O)Nc1ccc2[nH]c(CN3CCC(N(CCCN4CCOCC4)CC4OC(n5cnc6c(N)ncnc65)C(O)C4O)CC3)nc2c1 (stereo not shown) | H460 R231Q cells | colony formation | 5 µM |  | inhibition | 77.8%
O=Cc1c(O)ccc2ccccc12 | HUVEC | RNA sequencing, refers to: MCM2 | 75 µM, 24 h | relative to: DMSO | log2 fold change | -2.83
COc1cc(CNC(=O)C[C@H](C)CCC=C(C)C)ccc1OCc1cn(-c2ccc(Cl)cc2Cl)nn1 | LOX IMVI | SRB | 10 µM, 48 h |  | growth | 80.7%
CCOC(=O)CCCCC[C@@H]1NC(=O)[C@H]2CCCN2C(=O)[C@H](Cc2ccccc2)NC(=O)[C@H](Cc2ccccc2)NC1=O | iPSC-derived neural progenitor cells | western blot | 1 µM, 18 h | relative to: vehicle | H3K9 acetylation | ~2.1 fold increase
CC(C)Cc1ccc(C(C)C(=O)N/N=C/c2ccc(OCC(=O)N/N=C/c3cccc(O)c3)cc2)cc1 (stereo not shown) | U87 MG | MTT | 80 µM, 48 h |  | viability | 107%
CO[C@H]1N(OC)c2ccccc2[C@@]12CN=C(Nc1cc(C(F)(F)F)cc(C(F)(F)F)c1)S2 (relative stereo) | HCT-116 | PI flow cytometry | 40 µM, 72 h |  | sub-G1 phase cells | 55.1 ± 14.1%
COc1ccc(NC(=O)COc2ccc(/C=C/C(C)=N/O)cc2OC)cc1 | SH-SY5Y | flow cytometry | 5 µM, with: amyloid beta 10 µM |  | IL-6 expressing cells | 36.6%
CC(=O)O[C@@H]1CC[C@@]2(C)C(CC[C@]3(C)C2C(=O)C=C2C4[C@@H](C)[C@H](C)CC[C@]4(C)CC[C@]23C)[C@@]1(C)C(=O)O[C@@H]1C[C@H](C)CC[C@H]1C(C)C (stereo partly shown) | RAW264.7 | NO release, inhibitor, Griess | 10 µM, 24 h, LPS-stimulated |  | inhibition | 82.5%
[Cl-].[Cl-].[Ru+2].c1ccc2nc(-c3ccc4ccccc4n3)ccc2c1.c1ccc2nc(-c3ccc4ccccc4n3)ccc2c1.c1cnc2c(c1)ccc1cccnc12 | A549 | oxygen consumption rate, Seahorse extracellular flux | 1 h, with: indigo light 450 nm, 29.1 J/cm2 |  | lowest concentration inhibiting OCR | 10 µM
Cc1ccc(Nc2ncc3c(n2)N(C2CC2)C(=O)N(c2cc(NC(=O)c4cccc(C(F)(F)F)c4)ccc2C)C3)cn1 | Huh-7 | cell growth or viability, ATP luminescence | 72 h |  | GI50 | 158 nM
CC1CCN(c2ccc3nc(-c4cccc(N5CCc6ccccc6C5)n4)[nH]c3c2)CC1 | HT-22 | protection from ferroptosis, CCK-8 viability | 24 h, with: 1 µM erastin |  | EC50 | 670 nM
CCN1CCC2(CC1)C/C(=N\NC(=O)Nc1ccccc1)c1ccccc1O2 | A549 | annexin V-FITC/PI | concentration not given, 24 h, Total apoptosis |  | apoptotic cells | 39.7%

SMILES | cell line | test | setting | scale | quantity | result
N[C@@H](CCC(=O)N[C@@H](CS[Se]Cc1ccc(-c2cc(C(F)(F)F)nn2-c2ccc(S(N)(=O)=O)cc2)cc1)C(=O)NCC(=O)O)C(=O)O | 1205 Lu melanoma | propidium iodide flow cytometry | 25 µM, 72 h | relative to: untreated | sub-G0/G1 cells | 6.2 fold
N[C@@H](CSC(F)(F)[18F])C(=O)O | C6 |  | concentration not given, 30 min |  | protein incorporation | 0.6%
O=C(Nc1cc(Cl)ccc1O)c1nn2c(C(F)(F)F)cc(-c3cc(Br)cs3)nc2c1Br | healthy donor PBMC | ELISA | 2.5 µM, 48 h |  | IFN-gamma level | increased
COc1cc(CN2CCN(c3ccccc3F)CC2)c2cc3[n+](cc2c1O)CCc1cc2c(cc1-3)OCO2 | HeLa and MDCK | SRB | 48 h | relative to: CC50 MDCK over IC50 HeLa | therapeutic index | 21.5
CC(=O)OC[C@H]1O[C@@H](Sc2sc(C(=O)c3ccc(Br)cc3)c(N)c2-c2nc3ccccc3s2)[C@H](OC(C)=O)[C@@H](OC(C)=O)[C@@H]1OC(C)=O | EKVX | SRB | 10 µM, 48 h | relative to: untreated | growth | 72.7%
CC1=CC(C)(C)N=C(Nc2nc(C)c3cc(C)cc(C)c3n2)N1 | PBMC | ELISA | 10 µM, 288 h |  | IFN-γ level | 108%
CCOC(=O)c1csc2nc(-c3cccc(NC(=O)c4cc5cc(NC(=O)c6ccco6)ccc5n4Cc4ccc(C(F)(F)F)cc4)c3)cn12 | RAW264.7 |  | 10 µM, with: LPS | relative to: control | intracellular GSH level | decreased
Nc1nc2cc(CC[C@H]3C[C@@H](n4ccc5c(N)ncnc54)[C@H](O)[C@@H]3O)ccc2cc1Br | NCI-H1048 | refers to: SmD1/3-Me2 | 10 nM, 72 h |  | SmD1/3 dimethylation reduction | > 80%
COc1cc(CNC(=O)C[C@H](C)CCC=C(C)C)ccc1OCc1cn(-c2ccc([N+](=O)[O-])cc2)nn1 | MDA-MB-435 melanoma cells | SRB | 10 µM, 48 h |  | growth percent | 88.2%
COc1cc2c(OC3OCC(OC)C(OC)C3OC(=O)c3ccc(Br)cc3)c3c(c(-c4ccc5c(c4)OCO5)c2cc1OC)C(=O)OC3 (stereo not shown) | CAL-27 | western blot, refers to: N-cadherin | concentration not given, 36 h | relative to: DMSO | protein level | decreased
CC(=O)N[C@H](C(=O)N[C@H](C(=O)N[C@@H](CCCNC(=N)N)C(=O)N1Cc2ccccc2C[C@H]1C(=O)N[C@@H](Cc1ccccc1)C(N)=O)C1CCCCC1)C(C)C | MBP-specific BC-3 T cells | Bio-Plex multiplex, refers to: IL-8 | 200 µg/mL, 24 h, with: MBP87-99 antigen |  | cytokine level | 14800 ± 7190 pg/mL
C=C(CC)C(=O)c1ccc(OCC(=O)NCCNC(=O)COc2ccc(C(=O)C(=C)CC)c(Cl)c2Cl)c(Cl)c1Cl | SGC-7901/DDP cisplatin-resistant |  | 2.0 µM, with: cisplatin 2 µM | relative to: compound alone corrected | apoptosis increase | ~4 fold
COc1cc(CNC(=O)C[C@H](C)CCC=C(C)C)ccc1OCc1cn(-c2cccc(Cl)c2)nn1 | ACHN | SRB | 10 µM, 48 h |  | growth percent | 80.2%
CC(C)Cc1ccc(C(C)C(=O)N/N=C/c2ccc(OCC(=O)N/N=C/c3ccc([N+](=O)[O-])cc3)cc2)cc1 (stereo not shown) | U87 MG | MTT | 10 µM, 48 h |  | viability | 90%
COc1ccc(S(=O)(=O)N2CCc3ccccc3C2)cc1N1CCN(C(=O)c2ccc(F)cc2C(F)(F)F)CC1 | mouse midbrain dopamine neurons |  | 75 nM, 5 days |  | TH-positive neuron count | 356 ± 36.7
CC(C)Cc1ccc(C(C)C(=O)NN=Cc2ccc(OCC(=O)NN=Cc3cccc([N+](=O)[O-])c3)cc2)cc1 (stereo not shown) | U87 MG | MTT | 80 µM, 48 h |  | viability | 70.4%
CC(C)=CCc1c(OCC2OC2(C)C)ccc2ccc(=O)oc12 (stereo not shown) | COLO 320 (ABCB1-overexpressing, multidrug-resistant) | cell growth | 150 µM starting, CI at ED50, with: doxorubicin, ratio 278.72:1 |  | combination index | 0.64
CC(=C(c1ccc(O)cc1)c1ccc(Cl)cc1)c1ccc(Cl)cc1 | ACHN | cell growth or viability |  |  | GI50 | 3710 nM
CC1(C)OC(=O)C[C@H](O)[C@]2(C)[C@H]3CC[C@@]4(C)[C@H](c5ccoc5)OC(=O)[C@H]5O[C@]54[C@]3(C)C(=O)C[C@@H]12 | COLO 320 (ABCB1-overexpressing, multidrug-resistant) | cell growth | 200 µM starting, CI at ED50, with: doxorubicin, ratio 371.2:1 |  | combination index | 0.62
O=c1[nH]c(N2CCC3(CC2)CN(CCO)c2cc(F)cc(F)c23)nc2c1CCCC2 | COLO 320DM | qRT-PCR, refers to: AXIN2 and MYC | concentration not given, 48 h |  | mRNA level | decreased
